Measured values collected from several papers.
A part holds a random share of what one study measured.

Sample 1
Target: Hepatocyte nuclear factor 3-beta, forkhead domain (FOXA2, Homo sapiens, UniProt Q9Y261, residues 142-269)
Technique: protein-binding microarray
Molecule type: hairpin DNA
Sample: in vitro
Tested at: not given
Notes: whole hairpin DNA, median over replicate spots
Reference: not given
Reading: higher = stronger binding
Residues (chain): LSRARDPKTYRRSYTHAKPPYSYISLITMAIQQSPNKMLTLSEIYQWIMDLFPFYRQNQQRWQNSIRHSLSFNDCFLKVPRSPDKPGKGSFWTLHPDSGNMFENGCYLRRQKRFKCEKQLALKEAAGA
Oligonucleotide | median fluorescence [a.u.]
GAGGCCATGCAAACAGCGCCTCCTGGCGCTGTTTGCATGGCCTCACACTC (5mC at 29) | 3720
GAGGCCATGCAAACGACGCCTCCTGGCGTCGTTTGCATGGCCTCACACTC (5mC at 14) | 3380
GAGGCCAGGCAAACAACGCCTCCTGGCGTTGTTTGCCTGGCCTCACACTC (5mC at 37) | 3550
GAGGCCATCCAAACAACGCCTCCTGGCGTTGTTTGGATGGCCTCACACTC (5mC at 9) | 3070
GAGGCCCTGTAACCAACGCCTCCTGGCGTTGGTTACAGGGCCTCACACTC | 3050
GAGGCCATGCAAGCAACGCCTCCTGGCGTTGCTTGCATGGCCTCACACTC (5mC at 32) | 4160
GAGGCCATGTAACCAACGCCTCCTGGCGTTGGTTACATGGCCTCACACTC | 3040
GAGGCCATGTAGACAACGCCTCCTGGCGTTGTCTACATGGCCTCACACTC (5mC at 33) | 3100

Sample 2
Target: TAR DNA-binding protein 43, full length, His tag (TARDBP, Homo sapiens, UniProt Q13148, residues 1-414)
Technique: RNA Bind-n-Seq
Molecule type: RNA
Sample: in vitro
Tested at: 20 nM
Notes: 6-mer, flanks averaged, single round
Added: 150 mM KCl
Reference: input library
Reading: higher = stronger binding
Oligonucleotide | 6-mer enrichment (R)
CAUCCU | 0.569
UUGGCA | 0.802
UUACCA | 0.591
AGGAAG | 1.72
UCUACG | 0.626
UCGGUG | 1.24
GAGUCU | 0.781
CAGGUU | 0.743

Sample 3
Target: Interferon regulatory factor 5, full length, phosphomimetic (IRF5, Homo sapiens, UniProt Q13568-2, residues 1-514, S451D/S453D/S456D/S462D)
Technique: protein-binding microarray
Molecule type: double-stranded DNA, one strand shown
Sample: in vitro
Tested at: 940 nM top
Notes: 60-bp whole probe
Added: salmon DNA 0.4 mg/ml
Reference: random background probes
Reading: higher = stronger binding
Constant ends, left off below: GCCTAGCAC … GTCTTGATTCGCTTGACGCTGCTG
Oligonucleotide | fitted relative affinity [z-score]
TATGTCTGGCCCAAGCAGCCGTGCTAG | -0.586
TTAGGTCTCGGTCTCGGCTAGTGCTAG | 4.79
TTCTCTTTCATTGCTGCCCTGTGCTAG | 2.2
GACGATATCGGGTTTCAAGACGTGCTA | 0.378
GACGATTTCAGACTGTAGACGTGCTAG | -0.119
GACTATTTCAGTTCCGAGACGTGCTAG | 0.727
CCTTCCATCACTTTCCACTTGTGCTAG | 2
GACGATTTCTGACTGGAGACGTGCTAG | 0.0715

Single results of other studies
Molecule | target | read-out | molecule type | tested at | endpoint | value
TVIYRGTTF | HLA class I histocompatibility antigen, A alpha chain, allele A*80:01 (Homo sapiens, UniProt P04439) | peptide-MHC binding | peptide | concentration not given | binding | inactive

Excerpt of the above (sample 3):
Oligonucleotide | fitted relative affinity [z-score]
GACGATTTCAGACTGTAGACGTGCTAG | -0.119
TATGTCTGGCCCAAGCAGCCGTGCTAG | -0.586
GACGATATCGGGTTTCAAGACGTGCTA | 0.378
